Measurements from different studies.
Every numbered part comes from another study and shows a few of its results, in no order.
UniProt Q9HBH9, sequence (whole entry, looked up): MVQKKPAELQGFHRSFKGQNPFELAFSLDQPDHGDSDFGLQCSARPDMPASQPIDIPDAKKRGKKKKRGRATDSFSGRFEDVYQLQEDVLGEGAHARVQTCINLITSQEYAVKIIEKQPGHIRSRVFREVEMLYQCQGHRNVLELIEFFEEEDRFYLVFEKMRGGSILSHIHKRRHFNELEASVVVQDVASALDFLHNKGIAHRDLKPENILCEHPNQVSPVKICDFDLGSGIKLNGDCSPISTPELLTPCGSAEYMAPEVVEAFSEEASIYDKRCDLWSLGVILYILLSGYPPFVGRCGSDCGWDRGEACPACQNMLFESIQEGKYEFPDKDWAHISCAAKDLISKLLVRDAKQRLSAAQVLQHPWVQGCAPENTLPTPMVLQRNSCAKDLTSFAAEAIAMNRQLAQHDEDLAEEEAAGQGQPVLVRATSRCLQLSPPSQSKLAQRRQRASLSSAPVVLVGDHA
UniProt P08069, sequence (whole entry, looked up): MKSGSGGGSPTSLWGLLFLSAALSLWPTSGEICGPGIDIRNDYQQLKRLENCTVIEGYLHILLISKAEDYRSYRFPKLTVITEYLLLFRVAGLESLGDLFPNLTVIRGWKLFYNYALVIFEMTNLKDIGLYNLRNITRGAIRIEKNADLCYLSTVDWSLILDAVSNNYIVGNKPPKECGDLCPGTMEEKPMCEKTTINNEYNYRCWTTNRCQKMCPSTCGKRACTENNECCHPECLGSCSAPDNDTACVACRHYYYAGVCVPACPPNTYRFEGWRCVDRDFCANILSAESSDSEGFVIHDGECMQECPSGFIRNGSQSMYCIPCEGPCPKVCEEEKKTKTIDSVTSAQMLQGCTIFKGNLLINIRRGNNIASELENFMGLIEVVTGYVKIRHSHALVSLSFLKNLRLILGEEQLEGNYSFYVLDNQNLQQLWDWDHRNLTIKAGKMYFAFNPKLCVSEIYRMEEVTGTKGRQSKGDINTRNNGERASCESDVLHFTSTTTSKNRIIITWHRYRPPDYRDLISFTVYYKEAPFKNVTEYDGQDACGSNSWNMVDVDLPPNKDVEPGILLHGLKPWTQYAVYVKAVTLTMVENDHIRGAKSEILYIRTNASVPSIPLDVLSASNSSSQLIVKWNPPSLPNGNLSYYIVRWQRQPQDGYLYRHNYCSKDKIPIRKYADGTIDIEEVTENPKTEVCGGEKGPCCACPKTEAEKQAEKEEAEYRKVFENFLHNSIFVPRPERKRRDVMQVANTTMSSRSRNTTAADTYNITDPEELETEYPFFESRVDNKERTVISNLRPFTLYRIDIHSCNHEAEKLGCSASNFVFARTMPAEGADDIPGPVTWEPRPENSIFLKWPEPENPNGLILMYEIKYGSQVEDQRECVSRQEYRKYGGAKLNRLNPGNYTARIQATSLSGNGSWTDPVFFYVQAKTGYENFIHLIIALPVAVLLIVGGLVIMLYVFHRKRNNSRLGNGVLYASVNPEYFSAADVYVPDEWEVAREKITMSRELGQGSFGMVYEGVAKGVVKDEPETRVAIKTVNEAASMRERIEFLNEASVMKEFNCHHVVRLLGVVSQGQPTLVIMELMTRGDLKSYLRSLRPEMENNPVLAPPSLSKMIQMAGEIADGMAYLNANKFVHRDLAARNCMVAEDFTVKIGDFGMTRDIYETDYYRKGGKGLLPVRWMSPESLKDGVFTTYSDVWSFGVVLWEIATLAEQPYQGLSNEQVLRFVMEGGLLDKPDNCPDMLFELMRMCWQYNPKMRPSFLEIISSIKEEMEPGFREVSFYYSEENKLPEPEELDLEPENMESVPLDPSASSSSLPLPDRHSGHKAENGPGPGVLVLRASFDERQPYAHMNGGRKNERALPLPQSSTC
UniProt Q02779, sequence (whole entry, looked up): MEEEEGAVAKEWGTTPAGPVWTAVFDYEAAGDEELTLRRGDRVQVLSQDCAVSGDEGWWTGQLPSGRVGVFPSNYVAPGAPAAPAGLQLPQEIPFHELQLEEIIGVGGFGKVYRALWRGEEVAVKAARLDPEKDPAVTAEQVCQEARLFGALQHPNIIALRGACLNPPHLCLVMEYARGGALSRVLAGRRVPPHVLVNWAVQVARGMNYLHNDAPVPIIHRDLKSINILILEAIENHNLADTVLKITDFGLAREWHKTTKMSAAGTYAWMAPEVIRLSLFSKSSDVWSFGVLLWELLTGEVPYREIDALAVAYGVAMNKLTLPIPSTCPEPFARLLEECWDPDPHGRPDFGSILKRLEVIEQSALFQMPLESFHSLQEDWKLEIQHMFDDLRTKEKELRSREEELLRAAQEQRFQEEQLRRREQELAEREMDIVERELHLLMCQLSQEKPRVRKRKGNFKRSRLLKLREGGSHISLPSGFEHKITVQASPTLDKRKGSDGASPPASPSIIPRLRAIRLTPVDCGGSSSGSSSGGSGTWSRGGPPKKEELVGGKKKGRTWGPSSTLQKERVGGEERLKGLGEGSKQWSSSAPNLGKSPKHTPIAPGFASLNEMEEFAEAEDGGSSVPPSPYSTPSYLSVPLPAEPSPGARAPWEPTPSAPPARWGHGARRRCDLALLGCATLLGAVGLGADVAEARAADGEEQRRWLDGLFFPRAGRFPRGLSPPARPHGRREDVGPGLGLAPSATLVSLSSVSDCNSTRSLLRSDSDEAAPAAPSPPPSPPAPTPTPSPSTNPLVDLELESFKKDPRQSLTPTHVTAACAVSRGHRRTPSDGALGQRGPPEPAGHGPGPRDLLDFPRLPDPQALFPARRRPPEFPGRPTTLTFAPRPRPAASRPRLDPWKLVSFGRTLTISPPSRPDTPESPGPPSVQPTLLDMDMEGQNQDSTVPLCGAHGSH
UniProt Q9Y243, sequence (whole entry, looked up): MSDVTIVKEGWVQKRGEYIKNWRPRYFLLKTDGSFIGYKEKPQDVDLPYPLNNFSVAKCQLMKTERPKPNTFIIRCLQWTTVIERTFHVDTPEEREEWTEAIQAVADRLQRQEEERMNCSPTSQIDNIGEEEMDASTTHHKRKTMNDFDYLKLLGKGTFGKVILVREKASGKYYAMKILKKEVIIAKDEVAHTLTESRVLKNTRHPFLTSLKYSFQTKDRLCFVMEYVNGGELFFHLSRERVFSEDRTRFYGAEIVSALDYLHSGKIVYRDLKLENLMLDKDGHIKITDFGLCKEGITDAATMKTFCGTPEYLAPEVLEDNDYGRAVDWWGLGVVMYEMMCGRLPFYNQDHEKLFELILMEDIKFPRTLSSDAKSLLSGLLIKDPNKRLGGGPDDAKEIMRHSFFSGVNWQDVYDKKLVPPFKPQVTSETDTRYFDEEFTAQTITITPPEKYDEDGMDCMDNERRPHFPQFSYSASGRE
UniProt O94768, sequence (whole entry, looked up): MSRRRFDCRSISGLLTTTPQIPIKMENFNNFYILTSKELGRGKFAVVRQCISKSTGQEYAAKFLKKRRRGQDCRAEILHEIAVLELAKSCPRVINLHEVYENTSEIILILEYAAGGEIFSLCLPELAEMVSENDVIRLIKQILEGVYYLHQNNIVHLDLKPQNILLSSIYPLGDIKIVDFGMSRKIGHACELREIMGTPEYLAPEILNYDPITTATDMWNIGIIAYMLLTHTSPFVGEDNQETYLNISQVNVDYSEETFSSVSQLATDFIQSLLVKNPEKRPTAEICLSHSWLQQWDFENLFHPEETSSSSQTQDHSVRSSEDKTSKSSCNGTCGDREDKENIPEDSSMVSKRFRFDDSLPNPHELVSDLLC
UniProt Q9UBF8, sequence (whole entry, looked up): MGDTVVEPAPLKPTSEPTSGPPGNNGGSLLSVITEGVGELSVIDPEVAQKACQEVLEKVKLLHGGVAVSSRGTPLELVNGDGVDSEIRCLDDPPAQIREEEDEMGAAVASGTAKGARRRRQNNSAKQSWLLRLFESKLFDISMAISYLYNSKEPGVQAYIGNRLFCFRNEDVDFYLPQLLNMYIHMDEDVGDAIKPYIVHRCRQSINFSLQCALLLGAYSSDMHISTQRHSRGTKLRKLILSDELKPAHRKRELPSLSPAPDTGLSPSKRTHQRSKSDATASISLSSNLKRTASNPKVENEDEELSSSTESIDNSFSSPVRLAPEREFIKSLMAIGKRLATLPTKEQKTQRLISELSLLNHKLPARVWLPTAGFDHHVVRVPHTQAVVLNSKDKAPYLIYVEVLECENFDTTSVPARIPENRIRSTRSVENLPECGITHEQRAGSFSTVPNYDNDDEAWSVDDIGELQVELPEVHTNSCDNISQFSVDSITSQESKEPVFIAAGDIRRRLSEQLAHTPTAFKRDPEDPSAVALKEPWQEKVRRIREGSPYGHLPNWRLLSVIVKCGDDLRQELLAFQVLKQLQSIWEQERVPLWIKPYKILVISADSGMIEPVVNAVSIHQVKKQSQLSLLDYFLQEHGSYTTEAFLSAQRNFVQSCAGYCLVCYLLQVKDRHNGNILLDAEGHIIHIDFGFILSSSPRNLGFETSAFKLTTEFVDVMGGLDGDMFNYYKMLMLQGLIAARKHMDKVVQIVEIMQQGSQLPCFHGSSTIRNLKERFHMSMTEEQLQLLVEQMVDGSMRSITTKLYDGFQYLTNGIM
UniProt O14757, sequence (whole entry, looked up): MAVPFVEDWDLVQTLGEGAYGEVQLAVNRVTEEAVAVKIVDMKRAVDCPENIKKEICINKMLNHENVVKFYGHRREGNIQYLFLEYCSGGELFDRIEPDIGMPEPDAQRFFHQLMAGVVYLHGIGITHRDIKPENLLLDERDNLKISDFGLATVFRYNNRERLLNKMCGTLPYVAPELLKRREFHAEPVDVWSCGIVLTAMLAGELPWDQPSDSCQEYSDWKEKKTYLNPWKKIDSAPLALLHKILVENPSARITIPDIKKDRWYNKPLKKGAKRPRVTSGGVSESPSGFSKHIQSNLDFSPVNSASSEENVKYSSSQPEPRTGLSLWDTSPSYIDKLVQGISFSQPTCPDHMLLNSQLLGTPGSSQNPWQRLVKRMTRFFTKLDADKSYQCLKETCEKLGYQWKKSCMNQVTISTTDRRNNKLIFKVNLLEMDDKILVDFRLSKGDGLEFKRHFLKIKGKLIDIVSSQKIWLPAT

Sample 1
SMILES: N#CC1(c2ccccn2)CCN(Cc2cc(C(=O)N3CCCC3)c(=O)n3ccccc23)CC1
Observed: cell-free assay
Method: competition with immobilised ligand
Tested at: 1 µM
Measurement: remaining binding
cAMP-dependent protein kinase catalytic subunit alpha (PRKACA, Homo sapiens, UniProt P17612): 88%
Glycogen synthase kinase-3 alpha (GSK3A, Homo sapiens, UniProt P49840): 72%
Proto-oncogene tyrosine-protein kinase receptor Ret (RET, Homo sapiens, UniProt P07949, V804M): 95%
Beta-adrenergic receptor kinase 1 (GRK2, Homo sapiens, UniProt P25098): 82%
Megakaryocyte-associated tyrosine-protein kinase (MATK, Homo sapiens, UniProt P42679): 76%
Mitogen-activated protein kinase kinase kinase kinase 3 (MAP4K3, Homo sapiens, UniProt Q8IVH8): 81%
Ankyrin repeat and protein kinase domain-containing protein 1 (ANKK1, Homo sapiens, UniProt Q8NFD2): 79%
Mitogen-activated protein kinase 4 (MAPK4, Homo sapiens, UniProt P31152): 76%
Tyrosine-protein kinase Fes/Fps (FES, Homo sapiens, UniProt P07332): 99%
Serine/threonine-protein kinase B-raf (BRAF, Homo sapiens, UniProt P15056): 100%
Serine/threonine-protein kinase 35 (STK35, Homo sapiens, UniProt Q8TDR2): 96%
Insulin-like growth factor 1 receptor (IGF1R, Homo sapiens, UniProt P08069): 88%
Serine/threonine-protein kinase PAK 5 (PAK5, Homo sapiens, UniProt Q9P286): 93%
Serine/threonine-protein kinase 17B (STK17B, Homo sapiens, UniProt O94768): 93%
Phosphatidylinositol 4,5-bisphosphate 3-kinase catalytic subunit alpha isoform (PIK3CA, Homo sapiens, UniProt P42336, H1047L): 100%
Phosphatidylinositol 4-kinase beta (PI4KB, Homo sapiens, UniProt Q9UBF8): 100%

Sample 2
Observed: AlphaScreen signal
Method: AlphaScreen counter screen
Matrix: His6 peptide without bromodomain
Tested at: 50 µM
Setting: assay interference check
Measurement: inhibition
Nc1nc(Nc2ccc(Cl)c(Cl)c2)sc1C(=O)c1ccc(F)cc1: 43.6%
N#CC(=Cc1ccc[nH]1)c1nc2ccc(C(F)(F)F)cc2s1: 32.3%
Cc1cc(C=C2C(=O)C=CC2=O)cc(C)c1O: 14.7%
CC(C)(C)Cn1c(N)nc2ccc(-c3[nH]c(C(C)(C)C)nc3-c3ccc(F)cc3)nc21: 58.2%
CCOC(=O)C(CC)Sc1ccc2nnc(-c3cccc(F)c3)n2n1 (centres unmarked): 3.75%
O=C1Nc2ccc(Br)cc2C1=NNC(=S)NCC1CCCO1 (centres unmarked): 52.1%
CC(C)(C)c1nc(-c2cccc(NS(=O)(=O)c3c(F)cccc3F)c2F)c(-c2ccnc(N)n2)s1: 18.6%
O=C1c2c(O)ccc(O)c2C(=O)c2c(NCCCO)ccc(NCCCO)c21: 86%

Sample 3
Compound: CC(C)n1cnc(-c2ccc(F)cc2)c1-c1ncc(C(=O)Nc2ccc(N3CCN(C)CC3)cc2)[nH]1
Method: phase 2a trial
Host: idiopathic pulmonary fibrosis patients
Measurement: patients with arrhythmia
dose not given, adverse event grade 4, all dose arms pooled: 0%
60 mg once daily, adverse event grade 5: 0%
30 mg once daily, adverse event grade 3: 0%
30 mg once daily, adverse event grade 1: 0%
dose not given, adverse event grade 3, all dose arms pooled: 0%
60 mg once daily, adverse event grade 2: 0%
dose not given, adverse event grade 5, all dose arms pooled: 0%

Sample 4
Compound: NC(=O)c1cccc(-c2cc(Nc3ccc(OC(F)(F)F)cc3)ncn2)c1
Observed: enzyme activity
Action: inhibitor
Tested at: 0.5 µM
Relative to: control
Measurement: remaining activity
cGMP-dependent protein kinase 1 (PRKG1, Homo sapiens, UniProt Q13976): 98.4%
Cyclin-dependent kinase 9, with cyclin T1 (CDK9, Homo sapiens, UniProt P50750): 82.2%
RAC-gamma serine/threonine-protein kinase (AKT3, Homo sapiens, UniProt Q9Y243): 93.5%
Ephrin type-A receptor 5 (EPHA5, Homo sapiens, UniProt P54756): 103%
MAP kinase-interacting serine/threonine-protein kinase 2 (MKNK2, Homo sapiens, UniProt Q9HBH9): 95.4%
Serine/threonine-protein kinase PLK2 (PLK2, Homo sapiens, UniProt Q9NYY3): 98%
Casein kinase II subunit alpha (CSNK2A1, Homo sapiens, UniProt P68400): 94.6%
Serine/threonine-protein kinase Nek4 (NEK4, Homo sapiens, UniProt P51957): 98%
Dual specificity mitogen-activated protein kinase kinase 6 (MAP2K6, Homo sapiens, UniProt P52564): 101%
Mitogen-activated protein kinase kinase kinase 10 (MAP3K10, Homo sapiens, UniProt Q02779): 95.4%
Tyrosine-protein kinase BTK (BTK, Homo sapiens, UniProt Q06187): 99.1%
Serine/threonine-protein kinase Chk1 (CHEK1, Homo sapiens, UniProt O14757): 94.2%
Mitogen-activated protein kinase kinase kinase kinase 2 (MAP4K2, Homo sapiens, UniProt Q12851): 132%
Serine/threonine-protein kinase WNK2 (WNK2, Homo sapiens, UniProt Q9Y3S1): 115%
Interleukin-1 receptor-associated kinase 4 (IRAK4, Homo sapiens, UniProt Q9NWZ3): 159%
Casein kinase I isoform alpha (CSNK1A1, Homo sapiens, UniProt P48729): 103%
Mitogen-activated protein kinase 12 (MAPK12, Homo sapiens, UniProt P53778): 111%
Mitogen-activated protein kinase 13 (MAPK13, Homo sapiens, UniProt O15264): 98.1%
Leucine-rich repeat serine/threonine-protein kinase 2 (LRRK2, Homo sapiens, UniProt Q5S007): 108%
Tyrosine-protein kinase Lyn (LYN, Homo sapiens, UniProt P07948): 99.8%
Protein kinase C iota type (PRKCI, Homo sapiens, UniProt P41743): 99.6%
Mast/stem cell growth factor receptor Kit (KIT, Homo sapiens, UniProt P10721): 100%

A few entries again (sample 3):
60 mg once daily, adverse event grade 5: 0%
dose not given, adverse event grade 5, all dose arms pooled: 0%
30 mg once daily, adverse event grade 3: 0%
60 mg once daily, adverse event grade 2: 0%
30 mg once daily, adverse event grade 1: 0%
dose not given, adverse event grade 3, all dose arms pooled: 0%
